Published values from different studies.
Parts stem from different laboratories: compare values within a part only. Several values in a cell are separate wells, animals, samples, runs or records.
Chain of UniProt Q5S007 (whole entry, unmodified, looked up): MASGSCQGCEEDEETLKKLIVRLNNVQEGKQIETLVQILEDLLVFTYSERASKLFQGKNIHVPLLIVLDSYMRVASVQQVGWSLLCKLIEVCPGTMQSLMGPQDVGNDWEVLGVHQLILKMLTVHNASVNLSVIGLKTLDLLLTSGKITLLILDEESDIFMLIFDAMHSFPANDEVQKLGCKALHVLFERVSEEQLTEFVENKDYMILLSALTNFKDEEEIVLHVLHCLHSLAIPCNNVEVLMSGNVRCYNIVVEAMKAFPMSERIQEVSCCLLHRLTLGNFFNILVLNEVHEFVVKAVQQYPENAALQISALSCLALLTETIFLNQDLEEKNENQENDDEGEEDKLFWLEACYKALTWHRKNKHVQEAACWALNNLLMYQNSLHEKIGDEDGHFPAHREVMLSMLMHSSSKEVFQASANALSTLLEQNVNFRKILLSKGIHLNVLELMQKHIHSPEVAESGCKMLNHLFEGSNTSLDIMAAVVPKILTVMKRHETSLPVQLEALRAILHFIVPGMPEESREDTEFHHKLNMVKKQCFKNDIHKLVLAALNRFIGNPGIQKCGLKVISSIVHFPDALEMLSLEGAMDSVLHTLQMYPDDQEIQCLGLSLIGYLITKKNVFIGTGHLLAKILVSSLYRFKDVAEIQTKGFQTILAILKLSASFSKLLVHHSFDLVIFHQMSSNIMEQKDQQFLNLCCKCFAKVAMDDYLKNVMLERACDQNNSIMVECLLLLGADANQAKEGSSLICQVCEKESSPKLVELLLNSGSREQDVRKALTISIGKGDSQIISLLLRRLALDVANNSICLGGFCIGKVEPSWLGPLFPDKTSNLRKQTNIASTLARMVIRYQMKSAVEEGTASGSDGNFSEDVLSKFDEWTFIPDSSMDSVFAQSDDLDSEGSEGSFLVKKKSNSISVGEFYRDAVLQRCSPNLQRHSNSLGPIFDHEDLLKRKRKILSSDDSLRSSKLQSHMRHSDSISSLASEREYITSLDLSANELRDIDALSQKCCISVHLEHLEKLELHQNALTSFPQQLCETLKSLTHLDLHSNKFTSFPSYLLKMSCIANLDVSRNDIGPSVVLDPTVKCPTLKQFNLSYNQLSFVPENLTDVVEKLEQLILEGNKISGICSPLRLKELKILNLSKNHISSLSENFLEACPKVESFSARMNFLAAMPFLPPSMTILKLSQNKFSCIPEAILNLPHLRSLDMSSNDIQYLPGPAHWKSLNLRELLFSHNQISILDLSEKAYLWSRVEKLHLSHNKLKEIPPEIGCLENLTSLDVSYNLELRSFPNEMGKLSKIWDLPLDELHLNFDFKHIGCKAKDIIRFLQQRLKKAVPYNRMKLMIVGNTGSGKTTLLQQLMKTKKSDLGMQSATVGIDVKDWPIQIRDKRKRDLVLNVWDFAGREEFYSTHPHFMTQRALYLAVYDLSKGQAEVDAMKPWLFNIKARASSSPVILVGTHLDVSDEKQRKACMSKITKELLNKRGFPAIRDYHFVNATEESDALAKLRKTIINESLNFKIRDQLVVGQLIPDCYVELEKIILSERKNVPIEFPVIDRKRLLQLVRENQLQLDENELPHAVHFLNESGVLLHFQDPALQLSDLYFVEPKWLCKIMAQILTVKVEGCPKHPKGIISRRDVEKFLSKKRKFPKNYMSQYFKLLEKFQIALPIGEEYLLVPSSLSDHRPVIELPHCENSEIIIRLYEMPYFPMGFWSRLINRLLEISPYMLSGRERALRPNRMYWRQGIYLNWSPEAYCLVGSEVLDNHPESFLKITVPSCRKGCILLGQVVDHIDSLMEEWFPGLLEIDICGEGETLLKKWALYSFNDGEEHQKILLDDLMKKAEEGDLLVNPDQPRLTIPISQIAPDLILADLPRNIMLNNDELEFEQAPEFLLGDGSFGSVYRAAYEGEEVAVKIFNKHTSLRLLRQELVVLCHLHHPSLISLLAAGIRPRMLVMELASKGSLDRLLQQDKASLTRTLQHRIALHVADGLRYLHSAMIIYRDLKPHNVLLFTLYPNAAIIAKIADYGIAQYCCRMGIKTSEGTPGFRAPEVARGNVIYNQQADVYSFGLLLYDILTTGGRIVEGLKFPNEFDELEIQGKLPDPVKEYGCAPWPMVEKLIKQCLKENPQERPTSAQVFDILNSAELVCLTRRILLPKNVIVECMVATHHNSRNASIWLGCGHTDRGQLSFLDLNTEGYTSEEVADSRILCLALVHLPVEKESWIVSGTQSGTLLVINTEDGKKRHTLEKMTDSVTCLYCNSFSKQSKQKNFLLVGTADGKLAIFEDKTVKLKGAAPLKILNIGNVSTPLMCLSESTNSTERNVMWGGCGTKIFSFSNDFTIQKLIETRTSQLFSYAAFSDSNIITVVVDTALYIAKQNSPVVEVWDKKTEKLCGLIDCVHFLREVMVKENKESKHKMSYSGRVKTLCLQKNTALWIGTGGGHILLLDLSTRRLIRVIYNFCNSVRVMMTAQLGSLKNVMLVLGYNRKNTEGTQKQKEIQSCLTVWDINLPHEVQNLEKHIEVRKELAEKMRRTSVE
Chain of UniProt P27361 (whole entry, looked up): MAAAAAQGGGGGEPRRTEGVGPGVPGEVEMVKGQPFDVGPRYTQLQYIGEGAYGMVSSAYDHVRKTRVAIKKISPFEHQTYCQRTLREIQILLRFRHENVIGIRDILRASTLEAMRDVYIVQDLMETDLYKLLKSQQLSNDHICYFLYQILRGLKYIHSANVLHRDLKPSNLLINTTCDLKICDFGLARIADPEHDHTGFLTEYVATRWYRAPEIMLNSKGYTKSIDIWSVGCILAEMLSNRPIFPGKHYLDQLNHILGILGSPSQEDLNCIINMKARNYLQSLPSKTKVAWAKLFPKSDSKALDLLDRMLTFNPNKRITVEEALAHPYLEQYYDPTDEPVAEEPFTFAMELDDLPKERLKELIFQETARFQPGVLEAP
Chain of UniProt P31152 (whole entry, looked up): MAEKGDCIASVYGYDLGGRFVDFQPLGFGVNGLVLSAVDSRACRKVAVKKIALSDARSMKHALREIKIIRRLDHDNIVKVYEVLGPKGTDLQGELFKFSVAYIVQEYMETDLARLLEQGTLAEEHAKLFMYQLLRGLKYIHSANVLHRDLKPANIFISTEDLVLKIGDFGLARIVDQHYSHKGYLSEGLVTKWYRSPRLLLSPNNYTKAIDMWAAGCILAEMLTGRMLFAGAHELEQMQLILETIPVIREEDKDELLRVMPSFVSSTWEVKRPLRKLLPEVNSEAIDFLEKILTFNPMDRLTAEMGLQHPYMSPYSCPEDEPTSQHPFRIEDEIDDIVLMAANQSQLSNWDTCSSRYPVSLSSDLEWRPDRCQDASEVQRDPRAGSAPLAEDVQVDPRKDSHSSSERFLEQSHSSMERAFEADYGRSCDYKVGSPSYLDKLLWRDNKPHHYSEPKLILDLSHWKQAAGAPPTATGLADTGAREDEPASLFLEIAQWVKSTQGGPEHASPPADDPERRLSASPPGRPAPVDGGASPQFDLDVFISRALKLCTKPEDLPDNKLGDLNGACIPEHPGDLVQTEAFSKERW
Chain of UniProt Q99640 (whole entry, looked up): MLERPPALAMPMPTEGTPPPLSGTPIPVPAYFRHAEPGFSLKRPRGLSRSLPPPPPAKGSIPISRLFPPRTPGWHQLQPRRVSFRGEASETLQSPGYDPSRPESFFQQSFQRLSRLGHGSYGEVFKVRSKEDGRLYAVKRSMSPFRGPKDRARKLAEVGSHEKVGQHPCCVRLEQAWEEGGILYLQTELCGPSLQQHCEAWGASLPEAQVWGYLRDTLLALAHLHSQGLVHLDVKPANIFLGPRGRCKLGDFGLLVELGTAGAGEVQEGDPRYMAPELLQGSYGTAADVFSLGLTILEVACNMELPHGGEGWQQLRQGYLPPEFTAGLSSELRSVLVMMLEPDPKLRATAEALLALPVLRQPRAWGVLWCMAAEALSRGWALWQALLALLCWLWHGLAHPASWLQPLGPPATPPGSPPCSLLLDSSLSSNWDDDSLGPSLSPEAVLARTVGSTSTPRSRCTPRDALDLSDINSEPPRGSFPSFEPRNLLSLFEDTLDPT

Sample 1
Compound: CC(=O)Nc1c(C(C)=O)c(=O)n(C)c2nc(-c3ccc(Cl)cc3Cl)c(-c3ccc(Cl)cc3)cc12
Observed: cell-free assay
Method: competition with immobilised ligand
Tested at: 1 µM
target	remaining binding
RET (Homo sapiens, UniProt P07949, V804M)	100%
EPHB3 (Homo sapiens, UniProt P54753)	100%
MERTK (Homo sapiens, UniProt Q12866)	100%
TYRO3 (Homo sapiens, UniProt Q06418)	68%
CDK9 (Homo sapiens, UniProt P50750)	100%
LRRK2 (Homo sapiens, UniProt Q5S007, G2019S)	100%
SYK (Homo sapiens, UniProt P43405)	96%
Tyrosine-protein kinase ABL1, non-phosphorylated (ABL1, Homo sapiens, UniProt P00519, T315I)	89%
MAPK4 (Homo sapiens, UniProt P31152)	79%
LIM domain kinase 1 (LIMK1, Homo sapiens, UniProt P53667)	100%
MAP4K3 (Homo sapiens, UniProt Q8IVH8)	100%
Tyrosine-protein kinase JAK1, JH2 (JAK1, Homo sapiens, UniProt P23458)	100%
EGFR (Homo sapiens, UniProt P00533, G719C)	100%
MAPK3 (Homo sapiens, UniProt P27361)	100%
EPHA2 (Homo sapiens, UniProt P29317)	100%
PLK3 (Homo sapiens, UniProt Q9H4B4)	100%
PKMYT1 (Homo sapiens, UniProt Q99640)	100%
EPHB6 (Homo sapiens, UniProt O15197)	100%
FLT3 (Homo sapiens, UniProt P36888, N841I)	100%
MAP3K5 (Homo sapiens, UniProt Q99683)	100%
CSNK1G1 (Homo sapiens, UniProt Q9HCP0)	100%
GSK3A (Homo sapiens, UniProt P49840)	100%
PIK3CA (Homo sapiens, UniProt P42336, E545K)	79%

Sample 2
Cell line: HaCaT
Tested at: 100 µM
Time: 60 h
SMILES	viability
c1ccc(-c2ccc(C(c3ccccc3)n3ccnc3)cc2)cc1 (stereo not shown)	14.8%
C[C@]12C=CC(=O)C=C1CC[C@@H]1[C@@H]2[C@@H](O)C[C@@]2(C)[C@H]1CC[C@]2(O)C(=O)CO	146%
COc1cc([C@@H]2c3cc4c(cc3[C@@H](O[C@@H]3O[C@@H]5CO[C@@H](c6cccs6)O[C@H]5[C@H](O)[C@H]3O)[C@H]3COC(=O)[C@H]23)OCO4)cc(OC)c1O	16.5%
C[C@H](CS)C(=O)N1CCC[C@H]1C(=O)O	141%
CCOC(=O)Nc1ccc(NCc2ccc(F)cc2)nc1N	118%

Sample 3
Structure (SMILES): C=CCc1ccc(O)c(-c2ccc(O)c(CC=C)c2)c1
Observed: chloride current
ANO1 del476-501/F628A: Anoctamin-1 (ANO1, Homo sapiens, UniProt Q5XXA6, del476-501/F628A)
Chain of UniProt Q5XXA6 (whole entry, unmodified, looked up): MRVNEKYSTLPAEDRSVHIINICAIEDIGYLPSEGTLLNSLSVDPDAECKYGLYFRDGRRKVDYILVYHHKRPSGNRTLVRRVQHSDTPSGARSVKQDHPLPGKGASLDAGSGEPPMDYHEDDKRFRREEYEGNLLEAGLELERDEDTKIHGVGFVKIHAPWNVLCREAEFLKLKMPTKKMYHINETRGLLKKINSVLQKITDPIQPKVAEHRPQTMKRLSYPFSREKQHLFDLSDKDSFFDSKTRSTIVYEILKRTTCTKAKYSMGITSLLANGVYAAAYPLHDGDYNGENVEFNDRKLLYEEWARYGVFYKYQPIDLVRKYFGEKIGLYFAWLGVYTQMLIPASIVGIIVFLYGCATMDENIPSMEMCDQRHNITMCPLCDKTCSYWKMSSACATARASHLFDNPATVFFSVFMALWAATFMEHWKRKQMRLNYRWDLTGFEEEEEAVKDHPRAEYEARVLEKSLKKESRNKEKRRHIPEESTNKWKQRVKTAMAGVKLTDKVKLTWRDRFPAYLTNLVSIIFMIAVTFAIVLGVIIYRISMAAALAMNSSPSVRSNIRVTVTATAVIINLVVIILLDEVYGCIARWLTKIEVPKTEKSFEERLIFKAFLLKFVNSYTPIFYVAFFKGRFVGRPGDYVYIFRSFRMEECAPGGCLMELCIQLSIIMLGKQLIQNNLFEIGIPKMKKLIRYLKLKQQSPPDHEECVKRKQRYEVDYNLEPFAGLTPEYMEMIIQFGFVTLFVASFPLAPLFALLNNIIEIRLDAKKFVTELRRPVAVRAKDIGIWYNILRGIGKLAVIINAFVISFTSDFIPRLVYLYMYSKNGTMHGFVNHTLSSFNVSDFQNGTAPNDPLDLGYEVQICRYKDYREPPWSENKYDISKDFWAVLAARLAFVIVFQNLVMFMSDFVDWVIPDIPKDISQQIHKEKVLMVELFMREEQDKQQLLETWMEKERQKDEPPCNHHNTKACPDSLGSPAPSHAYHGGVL
target	action	method	tested at	notes	with	normalized current
ANO1 del476-501/F628A		whole-cell voltage clamp	3 µM	I-V at -80 mV	4 µM Ca2+	-0.641
Anoctamin-1 (ANO1, Homo sapiens, UniProt Q5XXA6, del476-501/E649A/R541A)		inside-out patch clamp	10 µM	membrane voltage 0 mV		-0.0024
ANO1 del476-501/F628A	inhibitor	whole-cell voltage clamp	1 µM	F602A mutant		0.966
ANO1 del476-501/F628A		whole-cell voltage clamp	3 µM	concentration-response at -60 mV	4 µM Ca2+	-0.523
Anoctamin-1 (ANO1, Homo sapiens, UniProt Q5XXA6, del476-501/K430L)	inhibitor	whole-cell voltage clamp	concentration not given	K430L mutant		0.406 and 0.367 and 0.349 and 0.447 and 0.396 and 0.443
Anoctamin-1 (ANO1, Homo sapiens, UniProt Q5XXA6, del476-501/E659A)		inside-out patch clamp	10 µM	membrane voltage 0 mV		-0.000855
ANO1 del476-501/F628A		whole-cell voltage clamp	3 µM	I-V at 100 mV	4 µM Ca2+	0.974
ANO1 del476-501/F628A		whole-cell voltage clamp	30 µM	I-V at -40 mV	4 µM Ca2+	-0.152
ANO1 del476-501/F628A		whole-cell voltage clamp	100 µM	concentration-response at 100 mV	4 µM Ca2+	0.145

Sample 4
Organism: Sarcocystis neurona
Observed: parasite growth
Tested at: 10 µM
Time: 96 h
Notes: first screen
SMILES	inhibition
C[C@H]1COc2c(C3(N)CC3)c(F)cc3c(=O)c(C(=O)O)cn1c23	2.1%
Cc1ncc([N+](=O)[O-])n1CC(O)CCl (stereo not shown)	-1.8%
CN1[C@@H]2CC[C@H]1C[C@@H](OC(=O)c1c[nH]c3ccccc13)C2	16.5%
CC(=O)NS(=O)(=O)c1ccc(N)cc1	-15.2%
Nc1c2c(nc3c1CCC3)CCCC2	13.2%
CC(=O)Nc1nnc(S(N)(=O)=O)s1	11.3%
CS(=O)(=O)OCCCCOS(C)(=O)=O	-27.6%
COCC1=C(C(=O)OC(C)OC(=O)OC(C)C)N2C(=O)[C@@H](NC(=O)/C(=N\OC)c3csc(N)n3)[C@H]2SC1 (stereo partly shown)	9.7%
C[C@@H]1O[C@@H](OC[C@H]2O[C@@H](Oc3c(-c4ccc(O)c(O)c4)oc4cc(O)cc(O)c4c3=O)[C@H](O)[C@@H](O)[C@@H]2O)[C@H](O)[C@H](O)[C@H]1O	-1.6%
